Results from different studies.
Each line is one published result; not all experiments were run side by side. Numbers after ± are the reported error.

| SMILES | assay | system | conditions | how to read | measurement | result |
| --- | --- | --- | --- | --- | --- | --- |
| O=C(Nc1nc2cccc(-c3ccc(CN4CCS(=O)(=O)CC4)cc3)n2n1)C1CC1 | item: injection site haematoma | human rheumatoid arthritis patients | oral, 75 mg once daily, 4 weeks, regardless of relatedness |  | treatment-emergent adverse events | 0% |
| COc1ccc([C@@H](O)c2cc(-c3ncnc4cc(N5CCOCC5)ccc34)c(F)cc2Cl)nn1 |  | locally advanced rectal cancer | oral, 100 mg, together with: capecitabine and radiotherapy |  | rectal tenesmus TEAE | 0% |
| Cc1nc2cccc(OCC(C)(C)C(=O)NC(C)C)c2c(N)c1C(=O)O |  | Sprague-Dawley rat, female, plasma | oral, 30 mg/kg, day 7 over day 1, 7-day repeated dosing | baseline: day 7 over day 1 | Cmax ratio | 1.24 ± 0.84 |
| CCC[C@H](C)[C@H]1CN(C(=O)OCC)C[C@@H](c2ccc(C(C)(C)C)cc2)N1 | shake-flask, LC-HRMS | aqueous buffer | 16 h, pH 6.8 |  | solubility | < 4 µM |
| N#CN1C[C@H](n2nc(-c3ccc(Oc4ccc(Cl)cn4)cc3)c(C(N)=O)c2N)CCC12CC2 |  | human, fed, plasma | oral, 600 mg, i=11 |  | AUC(0-t), geometric mean | 18100 ng·h/mL |
| O=C(NO)c1ccc(CN(c2cnccn2)c2cnccn2)cc1 |  | human | oral, dose not given, at least one TEAE, all dose cohorts, sample B patients |  | patients with adverse event | 85% |
| Cc1ccc(Sc2ccccc2N2CCNCC2)c(C)c1 | item: Nausea | healthy adult women | oral, 5 mg daily, 12 days |  | participants with TEAE | 16.7% |
| Cn1cnc2ccc(Nc3c(F)ccc(NS(=O)(=O)N4CC(F)C4)c3Cl)c(Cl)c2c1=O | item: headache grade ≥3 | human patients | dose not given, monotherapy trial | baseline: patients | patients with headache | 0% |
| Cn1ncnc1[C@H]1c2n[nH]c(=O)c3cc(F)cc(c23)N[C@@H]1c1ccc(F)cc1 |  | human patients, plasma | oral, 600 µg/m2 twice daily day 1, day 5, dose level DL4, median, together with: temozolomide 30 mg/m2 daily days 2-6 |  | AUCτ | 175 ng·h/mL |
| Cc1cc([C@H]2C[C@H]3[C@@H](CF)SC(N)=N[C@@]3(c3ccc(F)cc3F)CO2)on1 |  | 129/SVE wild-type mouse, male | subcutaneous, 100 mg/kg, 9 h |  | CSF concentration | 10 nM |
| CC(=O)Nc1ccc(S(=O)(=O)Nc2c(C)nn(-c3ccccc3)c2C)cc1 |  | aqueous buffer | pH 7.4 |  | solubility | < 2.75 µg/mL |
| Cn1cc(Nc2nc(N)nc(-c3cccc(-n4ccc5cc(C6CC6)cc(F)c5c4=O)c3CO)n2)cn1 |  | healthy subjects | oral, 300 mg tablet, fed high-fat breakfast |  | drug-related nausea subjects | 0% |
| CC[C@H](C)C(=O)N1CCC(NC(=O)Nc2ccc(OC(F)(F)F)c(F)c2)CC1 |  | Miglyol 810 |  |  | equilibrium solubility | 2000 µg/mL |
| CCOC(=O)N1C[C@@H](C2CCOCC2)N[C@@H](C(C)C)C1 | shake-flask, LC-HRMS | aqueous buffer | 16 h, pH 6.8 |  | solubility | > 750 µM |
| Cc1cc(C)c(CNC(=O)c2cc(Cl)c3c(c2C)O[C@@](C)([C@H]2CC[C@H](N(C)C)CC2)O3)c(=O)[nH]1 |  | human, plasma | oral, 200 mg, cycle 1 day 1 |  | Tmax unbound drug | 2 h |
| O=c1[nH]c(=O)n([C@H]2C[C@H](O)[C@@H](CO)O2)cc1CCCC[18F] |  | male CD-1 nu/nu mice, RG2 tumour, kidney | intravenous, dose not given, 2 h |  | biodistribution | 0.58 ± 0.1 %ID/g |
| CCc1cc(C(=O)NC)c2nccc(N3CCc4c(cc(Cn5ccnc5)cc4-c4cn(C)nc4C(F)(F)F)C3=O)c2c1 |  | Sprague-Dawley rats, male, bile duct-cannulated, plasma | oral, 50 mg/kg |  | MRT(0-inf) | 3.4 h |
| C[C@H](CCC(=O)NCC(=O)O)[C@H]1CC[C@H]2[C@@H]3CC[C@@H]4C[C@H](OS(=O)(=O)O)CC[C@]4(C)[C@H]3C[C@H](O)[C@]12C |  | human, plasma | control |  | Cmin | 127 ± 54 nM |
| CC(C)(C)C[C@@H]1COC[C@H](c2ccc(C#N)cc2)N1 | shake-flask, LC-HRMS | aqueous buffer | 16 h, pH 6.8 |  | solubility | > 750 µM |
| CCn1cc(C(=O)N2CCOCC2)c(=O)c2cc(NC3Cc4ccccc4C3)cnc21 |  | human, fed | oral suspension, 300 mg single dose, arithmetic mean |  | AUC(0-inf) | 13700 ng·h/mL |
| CCC(=O)N(CCC(c1ccc2c(c1)OCO2)c1ccccc1OC)Cc1ccccc1 (stereo not shown) |  | female athymic nude mouse, blood | i.p., 60 mg/kg twice daily, 14 days, group mean |  | MONO | 1.85% |
| Cc1nc(C)c(-c2ccnc(Nc3ccc(N(C)C)c(Cl)c3)n2)s1 |  | aqueous buffer | pH 7.4 |  | solubility | < 1.54 µg/mL |

| SMILES | assay | system | conditions | how to read | measurement | result |
| --- | --- | --- | --- | --- | --- | --- |
| O=C(Nc1ccc(OC(F)(F)Cl)cc1)c1cnc(N2CC[C@@H](O)C2)c(-c2ccn[nH]2)c1 | item: AST increase, grade ≥2 | human patients, dose-finding study | oral, 9 of sample B patients |  | patients with event | 4.5% |
| O=C1NCCc2nc(OCc3cccc(F)c3)ccc21 | item: Mydriasis | Sprague-Dawley rat male | oral, 100 mg/kg, 30 min | direction not given | Irwin test score | 0 |
| O=C(COc1ccc(Cl)cc1)NC12CC(c3nnc([C@H]4C[C@@H](OC(F)(F)F)C4)o3)(C1)C2 | item: Nausea | human | 200 mg once daily, 28 (unit not given) |  | adverse event incidence | 22.2% |
| N#Cc1ccc2c(c1)[C@H]1CCCN(C(=O)c3ccc4[nH]cnc4c3)[C@H]1C2 |  | human males | 80 mg, end of trial |  | SHBG level | 32.1 nmol/L |
| CCCCc1ccc(-c2ccc(C#N)cc2)cc1 |  | Sprague-Dawley rat, female, placenta | 1000 ng/mL in perfusate, 50 (unit not given), middle dose, mixture of 21 LCMs |  | placental accumulation | 15.9 ± 16.8 ng/g |
| NC1(C(=O)N[C@@H](CCO)c2ccc(Cl)cc2)CCN(c2nc[nH]c3nccc2-3)CC1 |  | metastatic CRPC patients | 480 mg b.i.d., any grade, treatment-related, together with: enzalutamide 160 mg daily |  | incidence of Dysuria | 0% |
| C=CC(=O)N1CCC(c2ccc(C(N)=O)c(-c3ccc(Oc4ccccc4)cc3)n2)CC1 | CTCAE 4.03 | patients with relapsed/refractory MCL | oral, dose not given |  | incidence of serious blood count decrease | 0.9% |
| CC(C)C[C@H](NC(=O)[C@@H](Cc1c[nH]c2ccccc12)NC(=O)[C@H](Cc1ccc(O)cc1)NC(=O)[C@H](CO)NC(=O)[C@H](Cc1c[nH]c2ccccc12)NC(=O)[C@H](Cc1c[nH]cn1)NC(=O)[C@@H]1CCC(=O)N1)C(=O)N[C@@H](CCCNC(=N)N)C(=O)N1CCC[C@H]1C(=O)NCC(N)=O |  | Chinese CPP children, girls | intramuscular, 22.5 mg, 12 months, day 1, month 6 |  | patients, drug-related metabolic TEAEs | 3.2% |
| O=c1[nH]c(=O)n([C@H]2C[C@H](O)[C@@H](CO)O2)cc1CCCCC[18F] |  | male CD-1 nu/nu mice, RG2 tumour, muscle | intravenous, dose not given, 2 h |  | biodistribution | 0.21 ± 0.12 %ID/g |
| Cc1c(C(=O)O)ccc2c3n(nc12)[C@@H]1[C@H](C3)N(CC2CC2)[C@@]2(C(=O)Nc3cc(Cl)ccc32)[C@H]1c1cccc(Cl)c1F |  | human patients phase Ia | oral, dose not given, all grades, all patients |  | decreased weight incidence | 9.3% |
| COCCOc1cnc2ccn([C@H](C)c3nnc4c(F)cc(-c5cnn(C)c5)cn34)c(=O)c2c1 |  | patients, plasma | oral, 150 mg once daily, day 1 24 h postdose |  | Ctrough | 200 ng/mL |
| O=C(/C=C/CCc1ccc(O)cc1)/C=C/c1ccc(O)cc1 |  | nude mouse MCF7 xenograft | 40 mg/kg, day 6 |  | body weight | 19.9 ± 1.19 g |
| COc1ccc2c(c1)CN(C(=O)CCN1CCC(Cc3ccccc3)CC1)CC[S@@+]2[O-] | telemetry | conscious male beagle dogs | intravenous, 4 mg/kg, 1 h |  | QRS duration | 33 ± 11 ms |
| CN(CC#N)C(=O)C[C@H](Nc1nc2ccccc2[nH]1)c1cccc(C(F)(F)F)c1 |  | human | intravenous infusion, 1 mg/kg, 5 mg/mL formulation |  | apparent clearance | 11.1 ± 2.52 L/h |
| Cc1ccc([C@@H]2O[C@H](CO)[C@@H](O)[C@H](O)[C@H]2O)cc1Cc1ccc(-c2ccc(F)cc2)s1 |  | Japanese type 2 diabetes patients | 25 mg, day 4, 24 h urine collection | baseline: baseline | urinary chloride excretion change | -3.31 mEq |
| CNCCOC12CC3(C)CC(C)(CC(Cn4ncc(-c5ccc(N6CCc7cccc(C(=O)Nc8nc9ccccc9s8)c7C6)nc5C(=O)O)c4C)(C3)C1)C2 |  | beagle dog, male, anaesthetised | intravenous bolus, 0.03 mg/kg, 15 min | baseline: baseline | QRS duration change | 0 ms |
| Cc1cc(NC2CCN(C(=O)OC3CCN(C(=O)/C=C/CN(C)C)C3)CC2)n2ncc(C(C)C)c2n1 (stereo not shown) | CTCAE v4.0, item: Vomiting | patients with advanced solid tumours | oral, dose not given, TIW, grade 3 or higher |  | patients with TEAE | 0% |
| Cc1ccc([C@H]2N[C@@H](c3ccc(-c4ccccn4)cc3)CO[C@@H]2C)cc1 | shake-flask, LC-HRMS | aqueous buffer | 16 h, pH 6.8 |  | solubility | < 4 µM |
| CC(C)[C@@H](CS(=O)(=O)C(C)C)N1C(=O)[C@@](C)(CC(=O)O)C[C@H](c2cccc(Cl)c2)[C@H]1c1ccc(Cl)cc1 |  | FVB mouse, wild type, plasma | intravenous, 20 mg/kg |  | AUC(0-inf) | 24500 ± 1470 ng·h/mL |
| CCOC(=O)N1C[C@@H](c2cccc(Br)c2)N[C@@H](c2ccc(N3CCCC3)cc2)C1 | shake-flask, LC-HRMS | aqueous buffer | 16 h, pH 6.8 |  | solubility | < 4 µM |
| CNC(=O)c1cc(Oc2ccc(NC(=O)Nc3ccc(Cl)c(C(F)(F)F)c3)c(F)c2)ccn1 |  | mouse plasma | 750 ng/mL, 8 h, room temperature |  | short-term stability accuracy | 100% |

A few entries again:
| SMILES | assay | system | conditions | how to read | measurement | result |
| --- | --- | --- | --- | --- | --- | --- |
| Cc1nc2cccc(OCC(C)(C)C(=O)NC(C)C)c2c(N)c1C(=O)O |  | Sprague-Dawley rat, female, plasma | oral, 30 mg/kg, day 7 over day 1, 7-day repeated dosing | baseline: day 7 over day 1 | Cmax ratio | 1.24 ± 0.84 |
| CCC[C@H](C)[C@H]1CN(C(=O)OCC)C[C@@H](c2ccc(C(C)(C)C)cc2)N1 | shake-flask, LC-HRMS | aqueous buffer | 16 h, pH 6.8 |  | solubility | < 4 µM |
| N#CN1C[C@H](n2nc(-c3ccc(Oc4ccc(Cl)cn4)cc3)c(C(N)=O)c2N)CCC12CC2 |  | human, fed, plasma | oral, 600 mg, i=11 |  | AUC(0-t), geometric mean | 18100 ng·h/mL |
| O=C(NO)c1ccc(CN(c2cnccn2)c2cnccn2)cc1 |  | human | oral, dose not given, at least one TEAE, all dose cohorts, sample B patients |  | patients with adverse event | 85% |
| Cc1ccc(Sc2ccccc2N2CCNCC2)c(C)c1 | item: Nausea | healthy adult women | oral, 5 mg daily, 12 days |  | participants with TEAE | 16.7% |
